# Published values of several laboratories.
# Each numbered part is a random draw from the data of one study; scales do not carry over between parts. Values joined by “and” are separate records of one study, mostly repeats; a detail may differ.

# Study 1
# Target: Fibroblast growth factor receptor 1 (FGFR1, Homo sapiens, UniProt P11362)
# Sequence of UniProt P11362 (whole entry, looked up): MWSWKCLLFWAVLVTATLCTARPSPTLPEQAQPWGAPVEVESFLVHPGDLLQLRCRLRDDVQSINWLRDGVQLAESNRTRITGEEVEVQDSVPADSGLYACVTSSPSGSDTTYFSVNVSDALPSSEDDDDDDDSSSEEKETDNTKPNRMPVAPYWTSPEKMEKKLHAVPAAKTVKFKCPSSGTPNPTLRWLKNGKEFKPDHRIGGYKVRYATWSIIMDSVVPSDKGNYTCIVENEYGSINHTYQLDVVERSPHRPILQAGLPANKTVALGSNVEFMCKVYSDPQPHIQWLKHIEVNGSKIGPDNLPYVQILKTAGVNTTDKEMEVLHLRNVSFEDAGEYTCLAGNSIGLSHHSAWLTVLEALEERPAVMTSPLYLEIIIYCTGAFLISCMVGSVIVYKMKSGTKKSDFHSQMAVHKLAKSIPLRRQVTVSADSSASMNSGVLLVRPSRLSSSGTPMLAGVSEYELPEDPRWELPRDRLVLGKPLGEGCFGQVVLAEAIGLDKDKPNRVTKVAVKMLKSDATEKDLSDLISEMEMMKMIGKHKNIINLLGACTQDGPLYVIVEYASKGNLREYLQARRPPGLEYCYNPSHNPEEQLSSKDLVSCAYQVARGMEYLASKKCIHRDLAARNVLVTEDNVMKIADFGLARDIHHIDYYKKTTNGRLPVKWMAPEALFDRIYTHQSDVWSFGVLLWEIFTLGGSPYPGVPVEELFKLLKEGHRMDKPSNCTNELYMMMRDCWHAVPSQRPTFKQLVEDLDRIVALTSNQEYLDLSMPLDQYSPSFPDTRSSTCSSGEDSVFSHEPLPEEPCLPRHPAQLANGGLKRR
# Effect on: enzyme activity
# Mode: inhibitor
Structure (SMILES),IC50 [nM]
CNc1ncc2cc(-c3cc(OC)cc(OC)c3Cl)c(=O)n(CCc3ccc(NC(=O)/C(C#N)=C/C(C)(C)NC)cc3)c2n1,2.1
CNc1ncc2cc(-c3cc(OC)cc(OC)c3Cl)c(=O)n(CCc3ccc(NC(=O)C(C#N)=CC(C)(C)N(C)C)cc3)c2n1,2.9
CNc1ncc2cc(-c3cc(OC)cc(OC)c3Cl)c(=O)n(CCc3ccc(N(C)C(=O)C(C#N)=CC(C)(C)N)cc3)c2n1,2
CNc1ncc2cc(-c3cc(OC)cc(OC)c3Cl)c(=O)n(CCc3ccc(NC(=O)C(C#N)=CC(C)(C)N)cc3)c2n1,0.5
CNc1ncc2cc(-c3cc(OC)cc(OC)c3Cl)c(=O)n(CCc3ccc(NC(=O)C(C#N)=CC(C)(C)N4CCOCC4)cc3)c2n1,5.3

# Study 2
# Structure (SMILES): COCC1CC2C(CCC3(C)C(O)CCC23)c2ccc(O)cc21 (stereo not shown)
# Method: DNA microarray
# Relative to: untreated cells
cell line,item,concentration,setting,log2 fold change
PANC-1,MCM4,concentration not given,lower dose arm,-0.487
A549,MCM4,concentration not given,,-0.886
PANC-1,GINS1,concentration not given,lower dose arm,-0.497
A549,ORC1L,concentration not given,,-1.04
A549,MCM4,50 µM,,-0.517
PANC-1,GZMK,concentration not given,lower dose arm,0
A549,AURKA,50 µM,,-0.419
A549,GTSE1,50 µM,,-0.397
A549,RFC3,100 µM,,-0.618
PANC-1,ISG20L1,concentration not given,higher dose arm,-0.288
PANC-1,IL20RA,concentration not given,,3.16
A549,CALR3,concentration not given,,0.978
SK-OV-3,CDC25B,concentration not given,higher dose arm,0.271
PANC-1,GZMK,concentration not given,higher dose arm,0
A549,OLIG2,50 µM,,5.42
A549,OLIG2,100 µM,,5.3
SK-OV-3,AURKA,concentration not given,higher dose arm,-0.286
A549,TMEM108,concentration not given,,4.18
A549,CDCA8,concentration not given,,-0.97

# Study 3
# Cell line: MDA-MB-468
# Effect on: cell viability
# Method: CellCounting-Lite
# Concentration: 0.3048 nM
# Temperature: 37 °C
# Direction: higher = more viable cells
Compound,luminescence signal
CCn1cnc2c(NCc3nc4cc(Cl)c(Cl)cc4[nH]3)nc(N3CCN(S(C)(=O)=O)CC3)nc21,505000 a.u. and 473000 a.u. and 511000 a.u.
Cn1cc(-n2cnc3c(NCc4nc5cc(Cl)c(Cl)cc5[nH]4)nc(N4CCNCC4)nc32)cn1,607000 a.u. and 588000 a.u. and 586000 a.u.
CCn1cnc2c(NCc3nc4cc(Cl)c(Cl)cc4[nH]3)nc(N3CCN(c4ccccn4)CC3)nc21,452000 a.u. and 454000 a.u. and 409000 a.u.
CCn1cnc2c(NCc3nc4cc(Cl)c(Cl)cc4[nH]3)nc(N3CCN(C(C)=O)CC3)nc21,464000 a.u. and 519000 a.u. and 478000 a.u.
CCn1cnc2c(NCc3nc4cc(Cl)c(Cl)cc4[nH]3)nc(N3CCN(C(=O)CNC(C)=O)CC3)nc21,415000 a.u. and 485000 a.u. and 386000 a.u.
CCn1cnc2c(NCc3nc4cc(Cl)c(Cl)cc4[nH]3)nc(N3CCC(NC(C)=O)CC3)nc21,449000 a.u. and 431000 a.u. and 469000 a.u.
CCn1cnc2c(NCc3nc4cc(Cl)c(Cl)cc4[nH]3)nc(N3CCN(Cc4ccncc4)CC3)nc21,449000 a.u. and 480000 a.u. and 549000 a.u.
CCn1cnc2c(NCc3nc4cc(Cl)c(Cl)cc4[nH]3)nc(N3CCN(C(=O)c4ccccc4)CC3)nc21,457000 a.u. and 463000 a.u. and 521000 a.u.
CC(=O)N1CCN(c2nc(NCc3nc4cc(Cl)c(Cl)cc4[nH]3)c3ncn(C(C)C)c3n2)CC1,419000 a.u. and 466000 a.u. and 472000 a.u.
CCn1cnc2c(NCc3nc4cc(Cl)c(Cl)cc4[nH]3)nc(N3CCN(C(=O)c4ccccn4)CC3)nc21,394000 a.u. and 505000 a.u. and 383000 a.u.
CCn1cnc2c(NCc3nc4ccc(F)c(F)c4[nH]3)nc(N3CCn4ncnc4C3)nc21,495000 a.u. and 427000 a.u. and 389000 a.u.

# Study 4
# Structure (SMILES): Cc1ccc(O)c(C)c1-c1cnc2[nH]c(-c3cnc(N4CCC(CCN5CCN(c6ccc(N7CCC(=O)NC7=O)cc6F)CC5)CC4)nc3)cc2c1C#N
# Cell line: HCC1569
# Method: in-cell western
# Item: CDK1 phospho-Thr14
concentration,pCDK1 (Thr14) level
3333.33 nM,102 RLU
10000 nM,100 RLU and 105 RLU
1.52 nM,11.9 RLU and 13 RLU
1111.11 nM,92.2 RLU and 86.2 RLU
41.15 nM,15.6 RLU and 18.1 RLU
123.46 nM,48.9 RLU and 36.2 RLU
4.57 nM,9.15 RLU and 11.5 RLU
370.37 nM,72.8 RLU and 75.5 RLU

# Some of these lines once more (study 4):
concentration,pCDK1 (Thr14) level
10000 nM,100 RLU and 105 RLU
1.52 nM,11.9 RLU and 13 RLU
1111.11 nM,92.2 RLU and 86.2 RLU
41.15 nM,15.6 RLU and 18.1 RLU
123.46 nM,48.9 RLU and 36.2 RLU
